Measurements gathered from unrelated publications.
Parts stem from different laboratories: compare values within a part only.

Sample 1
Target: Phosphate system positive regulatory protein PHO4, full length, GST-tagged (PHO4, Saccharomyces cerevisiae, UniProt P07270, residues 1-312)
Technique: competition protein-binding microarray
Form: double-stranded DNA, one strand shown
Medium: in vitro
Tested at: 2 µM
Setting: whole 60-bp probe, lowest competitor level
With: Cbf1 competitor, 0.05 µM
Direction: higher = stronger binding
Construct (chain): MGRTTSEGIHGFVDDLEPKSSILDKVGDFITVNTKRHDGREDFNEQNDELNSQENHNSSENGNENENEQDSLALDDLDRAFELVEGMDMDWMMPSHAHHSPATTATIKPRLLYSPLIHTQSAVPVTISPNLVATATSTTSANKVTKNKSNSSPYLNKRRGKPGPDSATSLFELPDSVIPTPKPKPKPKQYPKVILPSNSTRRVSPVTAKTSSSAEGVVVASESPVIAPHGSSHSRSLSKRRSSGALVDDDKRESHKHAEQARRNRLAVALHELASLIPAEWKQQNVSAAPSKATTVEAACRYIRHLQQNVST
| Strand | fluorescence intensity [a.u.] |
| --- | --- |
| GTAGCAGATTCCTGGAACGTGCTTTCTCTCGAGGTAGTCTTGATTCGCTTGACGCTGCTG | 14700 |
| GGTAACGAGATGGATCTCGTGAAGGATGATATCAATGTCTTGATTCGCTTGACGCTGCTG | 4690 |
| TGCGAAGGCACCTGGGTCGTGCCAGTATTTGGCGCCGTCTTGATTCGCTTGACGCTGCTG | 7640 |
| CGGCGCTAAACTCTTCACGTGAGGAGTTCACTAGAGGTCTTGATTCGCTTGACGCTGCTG | 10300 |
| TAAAGTGCCCGCCATCACGTCACTTCTTCCTACAGAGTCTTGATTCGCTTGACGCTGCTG | 4160 |
| TAGAGGCAAAGTAGTCACCTGACTGCGCAAGCCCATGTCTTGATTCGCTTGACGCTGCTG | 4060 |
| CTAACGAAGGTTTGTCTCGTGGGTGACAAGCCAAGTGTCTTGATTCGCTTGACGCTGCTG | 9110 |
| ATCTTGTGAAACTCCGTCGTGCTTTGGATAGAGCCTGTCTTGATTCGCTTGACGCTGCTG | 8260 |
| CGACTTGGTAGAAAGCACGATCTTCAGTGGAGTTGAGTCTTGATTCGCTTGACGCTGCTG | 9700 |
| ATGGGTACCACAAAGCGAGGTCGCTTTTGAAGAGCCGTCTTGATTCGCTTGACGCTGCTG | 3740 |
| ACCAAGCATCAACACCATGTGCATACCATACCGCTAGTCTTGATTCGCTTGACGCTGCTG | 10900 |
| CGGGGTTAAGTTTTTCACGTGCGATGCTTGCAGCAGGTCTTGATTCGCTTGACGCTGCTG | 12600 |
| CATACCCAACCTTTGCACGTGTTTTAAGATATTTGTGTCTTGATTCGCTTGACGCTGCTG | 22000 |
| ATATATATTTCATTGAATGGATATATGAAACGTTTAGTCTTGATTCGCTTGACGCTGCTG | 4150 |
| TATTTATGTTTAATCCACGTTACACCACCAATTATAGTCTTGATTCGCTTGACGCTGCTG | 9220 |
| CTTCTGTAAATTTGGGTGGTGGGTGGACGCGCCCCGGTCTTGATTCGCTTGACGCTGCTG | 5030 |
| CGTACGGCAATAATCCTCGTGCAAAAATCTCTAAGAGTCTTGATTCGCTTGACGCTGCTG | 10500 |
| TTGGCCGATTAAGAACCCGTGAGAACCACCAGAGAAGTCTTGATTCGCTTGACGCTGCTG | 4980 |
| CATACCCAACCTTGTCACATGACTTAAGATATTTGTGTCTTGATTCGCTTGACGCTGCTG | 7430 |

Sample 2
Target: RNA binding protein fox-1 homolog 2, RRM domain, GST-SBP tag (RBFOX2, Homo sapiens, UniProt O43251-10, residues 100-194)
Technique: RNA Bind-n-Seq
Form: RNA
Medium: in vitro
Tested at: 365 nM
Setting: natural RNA segment, single round, ends assumed
Relative to: no-protein control
Direction: higher = stronger binding
Target sequence (chain): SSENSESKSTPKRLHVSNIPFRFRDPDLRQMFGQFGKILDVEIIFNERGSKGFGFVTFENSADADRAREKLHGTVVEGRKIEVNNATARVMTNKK
| Strand | RBNS enrichment (R) |
| --- | --- |
| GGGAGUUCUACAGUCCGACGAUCUAAACAUAUGUAUUGUUAAUUAUAAAUAUCGAUAAGUAAUAGCAUAAUAGAUGAAGAGGUCUUAUUCAGAUGCUUCAUGUCCAUUUUACAUUACCCAUCUACUGUCGCAUUGGAAUUCUCGGGUGCCAA | 0.289 |
| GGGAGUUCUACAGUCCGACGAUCAUGGCAGGUAGCUUCACUCAGUGAGUAGCAAGGGCACUCAGCUCUGAGGAUCUCAAUUCAUACAGGUGAAAAUCCUUAAAGGACUCUAUGAUUUAAACUCUGGAGUCAAAUGGAAUUCUCGGGUGCCAA | 0.43 |
| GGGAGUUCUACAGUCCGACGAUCGAGAGGAAACUGGUUUGUAACAAUACUGCAAAUAGAAACCCCAUUUCUACUGAACAUCCUAGUUUUAAACAGAAGAAAAACUGUAAUCCUGGGGUUGGUAUGUAGGAGGUUGGAAUUCUCGGGUGCCAA | 0.328 |
| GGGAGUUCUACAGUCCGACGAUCAAUCUGGGUCCUCUGCAUUUCUGUAUAACUUACAAGGUCUGGUUGUCAGUUUUUGCAAAAAGGCCUGCUGGGGUUUCCAUAGGGAAUGUUUUGAAUCUAUAGAUGAGUCAUGGAAUUCUCGGGUGCCAA | 0.499 |
| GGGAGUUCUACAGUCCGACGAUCUAGGAUUCAAUAGUAUUCACUAACUGCUUAUUACAUGAGCAAUUUCAUCAAAUCUCCAAACUCUUAAAGGAUGCUUUCGGAAAACACGCUGUAUACCUAGAUGAUGACUAUGGAAUUCUCGGGUGCCAA | 0.236 |
| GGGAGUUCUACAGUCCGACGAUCGAGGCACAGAGAAGAGGGAGACAGGUCCAGAGAGGGAUGGGGCCUCCACCAAGACCAUAUAGACCAUCUGGCGGGCUCAAGCCGGGGCUUUUUCCUCUCCAGUCCAAAACUGGAAUUCUCGGGUGCCAA | 0.439 |
| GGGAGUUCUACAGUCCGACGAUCUUUGAUGGGAAGAAAAGGUACAUGUUUACAAAGAGGUUUUAUGAAAAGAAUAAAAAUUGACUUCUUGCUUGUACAUAUAGGAGCAAUACUAUUAUAUUAUGUAGUCCGUUUGGAAUUCUCGGGUGCCAA | 2.04 |
| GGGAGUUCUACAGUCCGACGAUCCUGCCUAGCUGACUGCUGCACAAGGCUGACUCUGGGCUCUACCCACCCUGCCUGAUGAGCCCUUCACUUUGUCCUCUUCCUGCCUCCUGGGCUCUGCCUUAAUCUCCUGGUGGAAUUCUCGGGUGCCAA | 0.88 |

Sample 3
Target: Histone acetyltransferase KAT6A, winged helix 2, GST fusion (KAT6A, Homo sapiens, UniProt Q92794, residues 85-181)
Technique: protein binding microarray
Form: double-stranded DNA, one strand shown
Medium: in vitro
Tested at: not given
Setting: 8-mer, flanks averaged, mean of 2 arrays, mostly near background
Relative to: not given
Direction: higher = stronger binding
Target sequence (chain): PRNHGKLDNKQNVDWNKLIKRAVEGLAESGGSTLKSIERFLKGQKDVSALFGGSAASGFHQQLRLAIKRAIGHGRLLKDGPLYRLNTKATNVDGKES
| Strand | E-score |
| --- | --- |
| AGAGAGGG | -0.0254 |
| CCGTCTAA | 0.0135 |
| CCCATGAC | -0.000415 |
| AATCATTA | -0.0135 |
| ACGATATC | -0.0585 |
| CCCTACGC | -0.0445 |
| AAGAGTGA | -0.071 |
| CGGGGAAA | 0.044 |
| ACGGTTGG | -0.103 |
| ACATTTTA | -0.0427 |
| ATTCTGCC | 0.0756 |
| AGCGGACC | 0.0427 |
| ACACTTCG | -0.0454 |
| GGAACTCA | -0.129 |
| CCTTGACA | -0.0357 |
| GGTATACA | 0.0134 |
| TAGATTCA | 0.161 |
| AATGCAGA | 0.13 |
| CGGTCAAC | 0.141 |
| AGGAAGCG | 0.0178 |
| ACATGCGG | -0.118 |
| CAACAGGG | 0.136 |
| AGCAAGCC | 0.0691 |
| GGGTAAGA | -0.0574 |

Sample 4
Target: RING finger protein unkempt homolog, zinc fingers 1-6, SBP tag (UNK, Homo sapiens, UniProt Q9C0B0, residues 30-357)
Chain of UniProt Q9C0B0 (30-357, looked up): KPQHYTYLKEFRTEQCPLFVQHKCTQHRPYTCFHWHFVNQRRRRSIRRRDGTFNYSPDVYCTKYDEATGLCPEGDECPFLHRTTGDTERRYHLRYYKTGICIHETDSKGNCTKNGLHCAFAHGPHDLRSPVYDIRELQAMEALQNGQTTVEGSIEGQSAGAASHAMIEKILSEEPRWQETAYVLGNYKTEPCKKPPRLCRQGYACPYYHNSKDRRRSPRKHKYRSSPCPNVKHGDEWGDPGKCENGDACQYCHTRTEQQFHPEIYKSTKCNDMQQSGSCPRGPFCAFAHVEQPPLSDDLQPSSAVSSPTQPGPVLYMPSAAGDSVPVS
Technique: RNA Bind-n-Seq
Form: RNA
Medium: in vitro
Tested at: 100 nM
Setting: RNA with constant flanks, vertebrate orthologous sites, ends assumed
Relative to: input RNA pool
Direction: higher = stronger binding
| Strand | bound/input enrichment [ratio] |
| --- | --- |
| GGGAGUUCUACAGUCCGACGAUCGCACAUGCCGCUAUCACCAAAUGCCAACUGUCACUUUUCAAAUUUCAUUCAGAACCAUUUUAGUGUUUCCUAUUUCCCACCACUUUCAAUGAUGAAGUAGCCUAAGUUCUCCUUCUGACACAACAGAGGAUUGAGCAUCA | 1.64 |
| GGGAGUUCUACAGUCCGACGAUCGGCUACAGGGAGAAGAGCUCACAAACUCAAACUAUUCAAGAGUUUCUAAUAGUUAAAAGCUAGGAAAGAUUAGGACAACUUUACAAAUGAGCAGUUAAAAAUAAAACAGAAGAGAGAGGACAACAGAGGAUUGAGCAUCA | 1.13 |
| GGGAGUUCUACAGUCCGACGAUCGUUGUUUUGUACAGGGGUUCUCUGUACUGAUUUGUUGUGGUUAUAAAACAAUUAGCAAAACAGCGGACAUCUGUAUUUAUUUUCUAUUCCAUUACCUCUCUGCUUCAUGUUUUUCCUUCUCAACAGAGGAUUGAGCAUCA | 0.992 |
| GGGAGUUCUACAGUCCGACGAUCUUUUUUAAAGUUUUUUAAUUUAUUUUUUUUUCUUUUGGGGGUAAAGUUCGCUCUACCAAAUAGUGAUCGUAACAAAUUGAUCUGUUAUGGAUGUUGCUAUAGUGACAUGCAGUUAUAUCUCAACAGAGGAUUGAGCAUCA | 1.17 |
| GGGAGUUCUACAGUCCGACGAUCUUACAGUCAUUGAUGGACUCUAUUUUUUUAUUAUUACUUGGACCUUGGUCGUUUUUAUACUAGCAAAAUGUCUUGUUUUGAUUUGUGUUUUGGUUUUUGUUUUGUUUUGUUUUGUUUUUGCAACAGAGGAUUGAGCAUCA | 1.77 |
| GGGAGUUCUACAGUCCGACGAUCCCGUUCGCUCCUCCUGGGUGCGUGACCAAGGGCAAGGUGGCUGCCGGCACUGUGAGGGCUGCGUGGUGGUUUGGGGGCUGCGUCCAGGUCCUCAGAGCCUUGGAGCAGAAGUGACAGCCACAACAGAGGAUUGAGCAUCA | 0.569 |
| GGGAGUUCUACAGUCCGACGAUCUGGGUGACUUUGGACGUCCGCUCAGCCAGGUUGCAGAAGCGGCUUAGCGUGUGUCCUAAUCUUCUCUCUGUGUAGGUAGGCCUGUGCCGCAAACAUGCUCCGCCAGAUCCUCGGGCAAGCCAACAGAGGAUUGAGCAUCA | 0.275 |
| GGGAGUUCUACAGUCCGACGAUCAUUUAGAAUGUAUUUGGUUAUAGUUAAUGAUCUCAUUCCCACGUUCCUUUUUCAUUAACGUAGCUGUAAUAGUAUGAAUGAAUAGGAGGUUUGUGCCAGUAGACAUUGUUACUACAUCAGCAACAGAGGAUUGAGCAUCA | 0.61 |

For quick reference, copied from above (sample 3):
| Strand | E-score |
| --- | --- |
| CGGTCAAC | 0.141 |
| AGGAAGCG | 0.0178 |
| ACATGCGG | -0.118 |
| CAACAGGG | 0.136 |
| AGCAAGCC | 0.0691 |
